Published values gathered from unrelated publications.
Compare with care: the assays were run in different laboratories. Changes are numbered by the printed parent chain.
Nfkb1 Rel homology region: Nuclear factor NF-kappa-B p105 subunit, Rel homology region (Nfkb1, Mus musculus, UniProt P25799, residues 1-429)
Chain of UniProt P25799 (1-429, looked up): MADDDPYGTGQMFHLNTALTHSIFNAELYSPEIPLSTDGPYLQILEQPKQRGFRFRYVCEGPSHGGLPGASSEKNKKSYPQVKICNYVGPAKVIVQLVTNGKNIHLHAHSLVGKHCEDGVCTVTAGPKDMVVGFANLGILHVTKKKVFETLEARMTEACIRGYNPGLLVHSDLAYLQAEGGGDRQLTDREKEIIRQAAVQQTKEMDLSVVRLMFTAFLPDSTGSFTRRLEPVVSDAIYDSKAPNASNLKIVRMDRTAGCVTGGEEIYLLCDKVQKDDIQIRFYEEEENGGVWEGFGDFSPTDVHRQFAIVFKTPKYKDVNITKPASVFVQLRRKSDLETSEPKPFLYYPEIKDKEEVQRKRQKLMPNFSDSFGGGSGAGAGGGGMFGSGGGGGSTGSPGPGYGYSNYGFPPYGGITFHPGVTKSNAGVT
P1: viral docking peptide; KGVKRKLFAEDSS; partner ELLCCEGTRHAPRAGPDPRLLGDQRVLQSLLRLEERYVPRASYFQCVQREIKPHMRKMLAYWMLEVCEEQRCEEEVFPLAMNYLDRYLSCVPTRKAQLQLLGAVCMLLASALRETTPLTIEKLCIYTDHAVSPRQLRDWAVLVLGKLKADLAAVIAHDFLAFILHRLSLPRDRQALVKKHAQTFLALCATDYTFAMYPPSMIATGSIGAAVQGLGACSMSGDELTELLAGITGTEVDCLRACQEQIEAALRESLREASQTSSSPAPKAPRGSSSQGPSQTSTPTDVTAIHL

Molecule | tested on | test | system | setting | how to read | endpoint | value
FBL (Homo sapiens, UniProt P22087) | UTP11 (Homo sapiens, UniProt Q9Y3A2) | cross-linking MS | cell fractions | together with: DSSO |  | cross-linked residues | K102 to K197
GGAATTTCTT | Nfkb1 Rel homology region | surface plasmon resonance | double-stranded DNA, one strand shown, in vitro | 1 nM to 1 µM, 10-bp κB site, 1:1 kinetic fit, 10 °C | higher = slower dissociation | dissociation half-life | 6 s
SFPQ (Homo sapiens, UniProt P23246) | NONO (Homo sapiens, UniProt Q15233) | cross-linking MS |  | hits only |  | interaction screen | cross-linked
GGGGAATTTT | Nfkb1 Rel homology region | surface plasmon resonance | double-stranded DNA, one strand shown, in vitro | 1 nM to 1 µM, 10-bp κB site, 1:1 kinetic fit, 10 °C | higher = slower dissociation | dissociation half-life | 113 s
CC2D2B (Homo sapiens, UniProt Q6DHV5) | ACSBG1 (Homo sapiens, UniProt Q96GR2) | cross-linking MS | cell fractions | together with: DMTMM |  | cross-linked residues | K209 to D31
AMITYITRK | HLA class I histocompatibility antigen, A alpha chain, allele A*25:01 (Homo sapiens, UniProt P04439) | peptide-MHC binding | peptide | concentration not given |  | binding | inactive
SF3A3 (Homo sapiens, UniProt Q12874) | SF3A1 (Homo sapiens, UniProt Q15459) | cross-linking MS | cell fractions | together with: DSSO |  | cross-linked residues | K92 to K188
P1 K6S | CCND3, cyclin fold, Cln2 fusion (human) | yeast growth competition, sequencing | yeast | weak parent motif | relative to: not given, higher = stronger binding | normalised enrichment score | 0.306

For quick reference, copied from above:
Molecule | tested on | test | system | setting | how to read | endpoint | value
SF3A3 (Homo sapiens, UniProt Q12874) | SF3A1 (Homo sapiens, UniProt Q15459) | cross-linking MS | cell fractions | together with: DSSO |  | cross-linked residues | K92 to K188
